Assay results from different studies.
Lines come from different studies, so protocols differ. Numbers after ± are the reported error.
Scn3a: Sodium channel protein type 3 subunit alpha (Scn3a, Rattus norvegicus, UniProt P08104)
Scn2a: Sodium channel protein type 2 subunit alpha (Scn2a, Rattus norvegicus, UniProt P04775)

Amino acid sequences for entries named in this document (tags omitted). Chains listed by the source or under a name are the forms on record and can include a tag or linker. Residues count along the entry.
UniProt P08104, whole entry: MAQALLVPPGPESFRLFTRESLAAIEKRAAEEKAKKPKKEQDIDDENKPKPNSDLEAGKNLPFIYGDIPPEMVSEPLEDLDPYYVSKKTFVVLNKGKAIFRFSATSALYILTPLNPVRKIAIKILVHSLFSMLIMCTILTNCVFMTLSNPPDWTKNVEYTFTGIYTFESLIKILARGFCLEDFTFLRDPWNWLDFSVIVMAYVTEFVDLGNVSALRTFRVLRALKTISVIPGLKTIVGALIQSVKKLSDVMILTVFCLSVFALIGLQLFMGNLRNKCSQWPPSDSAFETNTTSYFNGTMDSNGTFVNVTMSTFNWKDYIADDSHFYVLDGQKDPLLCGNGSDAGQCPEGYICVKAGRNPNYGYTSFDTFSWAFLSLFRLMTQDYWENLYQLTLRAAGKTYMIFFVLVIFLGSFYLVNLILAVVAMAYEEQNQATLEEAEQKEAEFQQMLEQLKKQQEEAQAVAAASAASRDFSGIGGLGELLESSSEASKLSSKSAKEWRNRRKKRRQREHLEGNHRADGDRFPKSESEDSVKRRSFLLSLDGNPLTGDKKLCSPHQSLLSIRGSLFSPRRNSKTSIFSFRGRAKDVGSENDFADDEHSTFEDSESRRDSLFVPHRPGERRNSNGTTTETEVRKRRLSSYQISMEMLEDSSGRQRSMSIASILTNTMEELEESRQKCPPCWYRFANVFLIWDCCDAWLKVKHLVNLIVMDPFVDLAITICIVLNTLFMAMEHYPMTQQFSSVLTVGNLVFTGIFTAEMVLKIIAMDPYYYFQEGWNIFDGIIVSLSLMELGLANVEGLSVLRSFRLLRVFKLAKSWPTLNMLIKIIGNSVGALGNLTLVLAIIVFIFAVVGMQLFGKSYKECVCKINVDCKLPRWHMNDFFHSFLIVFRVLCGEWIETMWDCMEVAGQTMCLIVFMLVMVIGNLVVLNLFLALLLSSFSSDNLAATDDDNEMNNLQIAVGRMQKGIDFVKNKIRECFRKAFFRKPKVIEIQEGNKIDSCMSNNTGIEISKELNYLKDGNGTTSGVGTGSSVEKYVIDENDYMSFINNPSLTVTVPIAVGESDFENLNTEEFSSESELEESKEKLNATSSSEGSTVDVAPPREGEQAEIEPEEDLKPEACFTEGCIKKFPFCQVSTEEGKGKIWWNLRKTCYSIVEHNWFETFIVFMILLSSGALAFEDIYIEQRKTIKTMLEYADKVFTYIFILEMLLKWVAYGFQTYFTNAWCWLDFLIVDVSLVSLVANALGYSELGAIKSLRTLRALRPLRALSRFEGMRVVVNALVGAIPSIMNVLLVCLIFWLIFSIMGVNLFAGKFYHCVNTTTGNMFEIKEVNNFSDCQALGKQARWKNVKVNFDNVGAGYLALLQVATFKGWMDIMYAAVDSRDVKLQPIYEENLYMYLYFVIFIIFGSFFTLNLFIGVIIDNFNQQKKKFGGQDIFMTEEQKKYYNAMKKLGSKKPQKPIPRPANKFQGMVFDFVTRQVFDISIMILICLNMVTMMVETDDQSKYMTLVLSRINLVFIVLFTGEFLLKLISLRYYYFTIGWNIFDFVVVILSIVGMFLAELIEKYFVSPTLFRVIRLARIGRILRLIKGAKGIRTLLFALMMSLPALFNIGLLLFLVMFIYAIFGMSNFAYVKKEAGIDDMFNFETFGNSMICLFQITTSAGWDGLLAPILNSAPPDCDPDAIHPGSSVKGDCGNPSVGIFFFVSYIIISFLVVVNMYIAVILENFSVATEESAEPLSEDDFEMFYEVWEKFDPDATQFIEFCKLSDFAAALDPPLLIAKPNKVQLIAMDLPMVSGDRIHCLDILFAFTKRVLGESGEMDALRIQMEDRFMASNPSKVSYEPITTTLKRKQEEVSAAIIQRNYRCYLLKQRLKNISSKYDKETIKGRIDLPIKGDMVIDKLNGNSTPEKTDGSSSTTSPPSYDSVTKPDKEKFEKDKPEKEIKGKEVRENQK
UniProt P04775, whole entry: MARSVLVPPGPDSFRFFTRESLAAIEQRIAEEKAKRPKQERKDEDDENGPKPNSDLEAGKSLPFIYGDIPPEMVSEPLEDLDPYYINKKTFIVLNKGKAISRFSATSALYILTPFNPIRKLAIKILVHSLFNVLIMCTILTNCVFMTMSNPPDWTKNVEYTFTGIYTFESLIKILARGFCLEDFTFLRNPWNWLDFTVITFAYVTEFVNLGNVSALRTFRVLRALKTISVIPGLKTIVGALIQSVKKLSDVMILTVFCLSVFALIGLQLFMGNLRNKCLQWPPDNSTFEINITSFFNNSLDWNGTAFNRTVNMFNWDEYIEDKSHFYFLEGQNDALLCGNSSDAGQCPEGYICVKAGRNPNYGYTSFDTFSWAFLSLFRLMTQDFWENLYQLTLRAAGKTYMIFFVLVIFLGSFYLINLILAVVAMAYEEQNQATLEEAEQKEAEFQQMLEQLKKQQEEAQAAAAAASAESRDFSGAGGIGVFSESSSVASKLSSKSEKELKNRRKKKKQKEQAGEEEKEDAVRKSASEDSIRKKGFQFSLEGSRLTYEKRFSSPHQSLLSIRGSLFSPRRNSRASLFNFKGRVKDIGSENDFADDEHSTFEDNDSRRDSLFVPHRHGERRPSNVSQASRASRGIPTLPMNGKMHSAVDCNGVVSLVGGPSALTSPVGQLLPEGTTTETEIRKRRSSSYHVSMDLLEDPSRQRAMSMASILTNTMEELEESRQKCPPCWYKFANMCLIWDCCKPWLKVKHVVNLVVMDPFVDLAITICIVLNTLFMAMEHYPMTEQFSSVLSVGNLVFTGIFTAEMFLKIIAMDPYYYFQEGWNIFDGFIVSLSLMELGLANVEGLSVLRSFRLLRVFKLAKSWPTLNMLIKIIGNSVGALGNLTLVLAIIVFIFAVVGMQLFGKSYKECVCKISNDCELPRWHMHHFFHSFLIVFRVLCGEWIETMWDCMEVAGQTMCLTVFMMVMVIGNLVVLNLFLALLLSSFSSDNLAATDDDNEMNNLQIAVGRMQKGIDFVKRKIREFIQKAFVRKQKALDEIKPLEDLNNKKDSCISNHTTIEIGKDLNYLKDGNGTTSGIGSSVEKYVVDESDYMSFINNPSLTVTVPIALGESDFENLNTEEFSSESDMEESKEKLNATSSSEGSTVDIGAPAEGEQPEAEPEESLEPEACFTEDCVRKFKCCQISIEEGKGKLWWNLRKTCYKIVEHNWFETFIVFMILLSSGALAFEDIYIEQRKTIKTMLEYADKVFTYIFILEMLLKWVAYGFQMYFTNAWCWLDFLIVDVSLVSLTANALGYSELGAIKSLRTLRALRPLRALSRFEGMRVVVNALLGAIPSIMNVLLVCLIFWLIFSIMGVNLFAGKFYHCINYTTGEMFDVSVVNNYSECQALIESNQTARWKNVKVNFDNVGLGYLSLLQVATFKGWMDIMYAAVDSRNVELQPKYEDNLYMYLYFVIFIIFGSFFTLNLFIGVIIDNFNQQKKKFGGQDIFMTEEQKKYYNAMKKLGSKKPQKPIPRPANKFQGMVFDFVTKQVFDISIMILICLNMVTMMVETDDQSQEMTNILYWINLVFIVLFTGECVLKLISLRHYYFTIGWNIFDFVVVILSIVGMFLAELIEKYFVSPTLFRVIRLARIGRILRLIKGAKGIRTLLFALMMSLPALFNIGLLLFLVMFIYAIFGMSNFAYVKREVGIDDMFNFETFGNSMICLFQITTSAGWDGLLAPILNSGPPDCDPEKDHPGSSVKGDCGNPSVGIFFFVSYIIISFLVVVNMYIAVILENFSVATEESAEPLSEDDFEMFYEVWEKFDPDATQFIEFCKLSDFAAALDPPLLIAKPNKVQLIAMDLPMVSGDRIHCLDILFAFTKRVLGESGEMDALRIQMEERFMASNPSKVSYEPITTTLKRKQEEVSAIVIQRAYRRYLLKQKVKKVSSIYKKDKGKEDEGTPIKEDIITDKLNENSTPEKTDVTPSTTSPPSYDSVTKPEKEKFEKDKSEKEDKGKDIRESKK
UniProt P08510, 1-655 with tags or gaps DEL6-46: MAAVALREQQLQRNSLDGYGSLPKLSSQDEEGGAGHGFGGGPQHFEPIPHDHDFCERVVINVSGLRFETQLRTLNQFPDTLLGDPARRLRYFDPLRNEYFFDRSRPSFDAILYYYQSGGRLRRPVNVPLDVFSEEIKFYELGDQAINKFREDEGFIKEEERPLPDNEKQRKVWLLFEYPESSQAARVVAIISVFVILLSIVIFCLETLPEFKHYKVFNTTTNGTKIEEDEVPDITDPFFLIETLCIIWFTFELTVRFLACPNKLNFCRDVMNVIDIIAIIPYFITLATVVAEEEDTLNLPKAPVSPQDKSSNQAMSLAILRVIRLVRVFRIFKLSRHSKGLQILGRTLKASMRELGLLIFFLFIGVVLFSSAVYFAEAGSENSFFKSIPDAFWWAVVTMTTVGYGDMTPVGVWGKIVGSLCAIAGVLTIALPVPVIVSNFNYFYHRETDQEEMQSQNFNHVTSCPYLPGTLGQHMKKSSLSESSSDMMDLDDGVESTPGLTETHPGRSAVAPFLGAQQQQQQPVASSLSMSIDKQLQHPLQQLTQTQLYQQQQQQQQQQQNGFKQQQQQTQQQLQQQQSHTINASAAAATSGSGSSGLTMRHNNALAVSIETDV
UniProt P22303, whole entry, looked up: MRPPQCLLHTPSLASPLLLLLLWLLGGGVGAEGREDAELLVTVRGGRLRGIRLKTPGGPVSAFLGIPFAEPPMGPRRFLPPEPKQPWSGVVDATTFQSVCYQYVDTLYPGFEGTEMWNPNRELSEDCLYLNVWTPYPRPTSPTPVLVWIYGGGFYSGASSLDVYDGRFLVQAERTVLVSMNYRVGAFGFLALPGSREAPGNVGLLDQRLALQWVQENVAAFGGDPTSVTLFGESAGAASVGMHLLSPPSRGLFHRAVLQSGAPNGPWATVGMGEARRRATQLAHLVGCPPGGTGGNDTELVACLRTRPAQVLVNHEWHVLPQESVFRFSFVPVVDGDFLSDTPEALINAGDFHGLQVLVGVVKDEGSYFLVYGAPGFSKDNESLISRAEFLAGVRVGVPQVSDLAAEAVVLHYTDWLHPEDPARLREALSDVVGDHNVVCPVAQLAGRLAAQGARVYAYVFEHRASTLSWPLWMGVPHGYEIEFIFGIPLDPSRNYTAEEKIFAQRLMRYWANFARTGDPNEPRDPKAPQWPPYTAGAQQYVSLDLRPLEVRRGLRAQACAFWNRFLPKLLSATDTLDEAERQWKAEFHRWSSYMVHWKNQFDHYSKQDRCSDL

| SMILES | tested on | test | system | conditions | scale | endpoint | value |
| --- | --- | --- | --- | --- | --- | --- | --- |
| CC(C)[C@H](N)C(=O)NCC(=O)N[C@@H](CCC(=O)O)C(=O)N[C@@H](CCCNC(=N)N)C(=O)N[C@H]1C[Se][Se]C[C@@H]2NC(=O)[C@H](Cc3c[nH]c4ccccc34)NC(=O)[C@H](CCCNC(=N)N)NC(=O)CNC(=O)[C@H](C)NC(=O)CNC(=O)[C@H](CCCNC(=N)N)NC(=O)[C@H](CCCCN)NC(=O)CNC(=O)[C@H](CC(N)=O)NC(=O)[C@H](CCCCN)NC(=O)[C@H](CSSC[C@@H](C(=O)N[C@@H](C)C(N)=O)NC(=O)[C@H](CCCNC(=N)N)NC(=O)[C@H](CO)NC(=O)[C@H](Cc3c[nH]cn3)NC(=O)[C@H](CC(=O)O)NC(=O)[C@H](CCCNC(=N)N)NC2=O)NC1=O | Scn3a | sodium current, blocker, two-electrode voltage clamp | Xenopus laevis oocytes |  |  | Kd | 0.42 ± 0.05 µM |
| CC[C@H](C)[C@H](NC(=O)[C@H](C)NC(=O)[C@H](CCC(=O)O)NC(=O)[C@H](CCC(=O)O)NC(=O)[C@H](CC(C)C)NC(=O)[C@H](CCCCN)NC(=O)[C@H](CCCCN)NC(=O)[C@H](CCSC)NC(=O)[C@H](CCC(=O)O)NC(=O)[C@H](Cc1ccc(O)cc1)NC(=O)[C@H](CCC(=O)O)NC(=O)[C@H](CC(C)C)NC(=O)[C@H](CC(=O)O)NC(=O)[C@H](CC(C)C)NC(=O)[C@H](Cc1ccccc1)NC(=O)[C@H](Cc1ccc(O)cc1)NC(=O)[C@@H](NC(=O)[C@H](CC(N)=O)NC(=O)[C@@H](NC(=O)[C@H](CCC(N)=O)NC(=O)[C@H](CC(=O)O)NC(=O)[C@H](CC(C)C)NC(=O)[C@@H](N)CO)[C@@H](C)CC)C(C)C)C(=O)N[C@@H](CCCCN)C(=O)N[C@@H](CCCCN)C(=O)N[C@@H](CC(C)C)C(=O)N[C@@H](CCC(=O)O)C(=O)N[C@@H](CCC(=O)O)C(=O)N[C@@H](CO)C(=O)N[C@@H](Cc1ccc(O)cc1)C(=O)N[C@H](C(=O)N[C@@H](CC(=O)O)C(=O)N[C@@H](CC(C)C)C(=O)N[C@@H](CCCCN)C(=O)N[C@@H](CCC(=O)O)C(=O)N[C@@H](CC(C)C)C(=O)O)[C@@H](C)CC | SARS-CoV-2 Delta pseudovirus | pseudovirus infection, inhibitor, luciferase | Caco-2 | 24 h |  | IC50 | 0.291 µM |
| Cc1ccc(S(=O)(=O)Nc2cccc(C(=O)NC3CCN(c4ncnc5[nH]cnc45)CC3)c2)cc1Cl | SARS-CoV-2 |  | Wuhan-Hu-1 | 0.03048 µM | relative to: untreated infected cells | relative infection | 81.9% |
| C[C@@H]1NC(=O)[C@H](Cc2c[nH]c3ccccc23)NC(=O)[C@H](CCCCN)NC(=O)COCCNC(=O)[C@@H]2CSSC[C@@H](C(N)=O)NC(=O)[C@H](CSSC[C@H](N)C(=O)N[C@@H](CC(N)=O)C(=O)N2)NC(=O)[C@H](CCCNC(=N)N)NC(=O)[C@H](CO)NC(=O)[C@H](Cc2c[nH]cn2)NC(=O)[C@H](CC(=O)O)NC(=O)[C@H](CCCNC(=N)N)NC1=O | Scn2a | sodium current, blocker, two-electrode voltage clamp | Xenopus oocytes |  |  | Kd | 0.046 µM |
| COc1ccc(S(=O)(=O)Nc2cccc(C(=O)NC3CCN(c4ncnc5[nH]cnc45)CC3)c2)cc1 | SARS-CoV-2 |  | Wuhan-Hu-1 | 200 µM | relative to: untreated infected cells | relative infection | 15.1% |
| C[C@@H]1NC(=O)[C@H](CCCNC(=N)N)NC(=O)[C@H](CO)NC(=O)[C@H](Cc2cnc[nH]2)NC(=O)[C@H](CC(=O)O)NC(=O)[C@H](CCCNC(=N)N)NC(=O)[C@@H]2CSSC[C@H](N)C(=O)N[C@@H](C)C(=O)N[C@@H](CC(N)=O)C(=O)N[C@@H](CSSC[C@@H](C(N)=O)NC1=O)C(=O)N[C@@H](CO)C(=O)N[C@@H](CO)C(=O)N[C@@H](CCCCN)C(=O)N[C@@H](Cc1c[nH]c3ccccc13)C(=O)N2 | Scn2a | sodium current, blocker, two-electrode voltage clamp | Xenopus oocytes |  |  | Kd | 0.17 ± 0.06 µM |
| CC[C@H](C)[C@@H]1NC(=O)[C@H](CCCNC(=N)N)NC(=O)[C@@H](N)CSSC[C@@H]2NC(=O)[C@@H]3CSSC[C@@H](C(=O)N[C@H](C(=O)O)C(C)C)NC(=O)[C@H](CCCCN)NC(=O)[C@H](CC(N)=O)NC(=O)[C@H](Cc4ccccc4)NC(=O)[C@H](CCCNC(=N)N)NC(=O)[C@H](CC(N)=O)NC(=O)[C@H](CSSC[C@H](NC(=O)[C@H](CCCCN)NC(=O)[C@H](CCC(N)=O)NC(=O)[C@H](CC(N)=O)NC(=O)[C@@H]4C[C@@H](O)CN4C1=O)C(=O)N[C@@H](Cc1ccccc1)C(=O)N[C@@H](CCC(N)=O)C(=O)N[C@@H](Cc1c[nH]cn1)C(=O)N[C@@H](CC(C)C)C(=O)N[C@@H](CC(=O)O)C(=O)N[C@@H](CC(=O)O)C(=O)N3)NC(=O)[C@H](CCCCN)NC(=O)[C@H](CCCNC(=N)N)NC(=O)[C@H](CO)NC2=O | Sh (Drosophila melanogaster, UniProt P08510, del6-46) | potassium current, outside-out patch clamp |  | pulse application, zero voltage, internal K 100, together with: 1 mM TEA |  | Kd | 0.341 ± 0.038 µM |
| CC[C@H](C)[C@H](NC(=O)[C@H](C)NC(=O)[C@H](CCC(=O)O)NC(=O)[C@H](CCC(=O)O)NC(=O)[C@H](CC(C)C)NC(=O)[C@H](CCCCN)NC(=O)[C@H](CCCCN)NC(=O)[C@H](CCSC)NC(=O)[C@H](CCC(=O)O)NC(=O)[C@H](Cc1ccc(O)cc1)NC(=O)[C@H](CCC(=O)O)NC(=O)[C@H](CC(C)C)NC(=O)[C@H](CC(=O)O)NC(=O)[C@H](CC(C)C)NC(=O)[C@H](Cc1ccccc1)NC(=O)[C@H](Cc1ccccc1)NC(=O)[C@@H](NC(=O)[C@H](CC(N)=O)NC(=O)[C@@H](NC(=O)[C@H](CCC(N)=O)NC(=O)[C@H](CC(=O)O)NC(=O)[C@H](CC(C)C)NC(=O)[C@@H](N)CO)[C@@H](C)CC)C(C)C)C(=O)N[C@@H](CCCCN)C(=O)N[C@@H](CCCCN)C(=O)N[C@@H](CC(C)C)C(=O)N[C@@H](CCC(=O)O)C(=O)N[C@@H](CCC(=O)O)C(=O)N[C@H](C(=O)N[C@@H](Cc1ccc(O)cc1)C(=O)N[C@H](C(=O)N[C@@H](CC(=O)O)C(=O)N[C@@H](CC(C)C)C(=O)N[C@@H](CCCCN)C(=O)N[C@@H](CCC(=O)O)C(=O)N[C@@H](CC(C)C)C(=O)O)[C@@H](C)CC)[C@@H](C)O | SARS-CoV-2 JN.1 pseudovirus | pseudovirus infection, inhibitor, luciferase | Caco-2 | 24 h, dual mutations |  | IC50 | 0.0678 µM |
| C[C@@H]1NC(=O)[C@H](Cc2c[nH]cn2)NC(=O)[C@H](CC(=O)O)NC(=O)[C@H](CCCNC(=N)N)NC(=O)[C@@H]2CSSC[C@H](NC(=O)[C@H](CC(N)=O)NC(=O)[C@@H]3CCC(=O)N3)C(=O)N[C@H]3CSSC[C@H](NC(=O)[C@H](CCCNC(=N)N)NC1=O)C(=O)N[C@H](C(N)=O)CSSC[C@H](NC(=O)CNC(=O)CNC(=O)[C@H](CC(N)=O)NC3=O)C(=O)N[C@@H](CO)C(=O)N[C@@H](CO)C(=O)N[C@@H](CCCCN)C(=O)N[C@@H](Cc1c[nH]c3ccccc13)C(=O)N2 | Scn2a | ion current, blocker, electrophysiology |  |  |  | Kd | 0.047 ± 0.016 µM |
| Nc1ncnc2c1ncn2[C@@H]1O[C@H](COP(=O)(O)OP(=O)(O)OP(=O)(O)O)[C@@H](O)[C@H]1O | Genome polyprotein, RNA polymerase 3D (Human poliovirus 1 Mahoney, UniProt P03300, K2107H) | AMP incorporation, substrate |  | pH 7.5 |  | Kd | 340 ± 20 µM |
| CC(C(=O)O)c1nn(C)c2nc(N)[nH]c(=O)c2c1=O (stereo not drawn) | Dihydropteroate synthase (Bacillus anthracis, UniProt Q81VW8) |  |  |  |  | Kd | 0.24 ± 0.07 µM |
| CC(C)[C@H](N)C(=O)NCC(=O)N[C@@H](CCC(=O)O)C(=O)N[C@@H](CCCNC(=N)N)C(=O)N[C@H]1C[Se][Se]C[C@@H]2NC(=O)[C@H](Cc3c[nH]c4ccccc34)NC(=O)[C@H](CCCNC(=N)N)NC(=O)CNC(=O)[C@H](CSSC[C@@H](C(N)=O)NC(=O)[C@H](C)NC(=O)[C@H](CCCNC(=N)N)NC(=O)[C@H](CO)NC(=O)[C@H](Cc3c[nH]cn3)NC(=O)[C@H](CC(=O)O)NC(=O)[C@H](CCCNC(=N)N)NC2=O)NC(=O)CNC(=O)[C@H](CCCNC(=N)N)NC(=O)[C@H](CCCCN)NC(=O)CNC(=O)[C@H](CC(N)=O)NC(=O)[C@H](CCCCN)NC(=O)[C@H](C)NC1=O | Scn3a | sodium current, blocker, two-electrode voltage clamp | Xenopus laevis oocytes |  |  | Kd | 0.2 ± 0.04 µM |
| CC(C)[C@H](NC(=O)c1n[nH]c2c1CCC2)c1nc2ccccc2n1C | Replicase polyprotein 1ab, nsp3 Mac1 domain (rep, Severe acute respiratory syndrome coronavirus 2, UniProt P0DTD1) |  |  |  |  | Kd | 3.16 ± 2.42 µM |
| O=C(N[C@@H]1CCC[C@H](Nc2nc(-c3n[nH]c4ncc(F)cc34)ncc2F)C1)c1ccc(-c2c3ccc(=O)cc-3oc3cc(O)ccc23)c(C(=O)O)c1 | Polymerase basic protein 2, cap-binding domain (Influenza A virus, UniProt Q2LG68) |  |  |  |  | Kd | 0.017 ± 0.004 µM |
| CCN(CC)Cc1cc(N)ccc1O | Acetylcholinesterase, VX-inhibited (ACHE, Homo sapiens, UniProt P22303) | enzyme reactivation, reactivator | VX |  |  | Kd | 2080 ± 940 µM |
| C[C@H](N)C(=O)N[C@H]1CSSC[C@@H]2NC(=O)[C@H](CCCNC(=N)N)NC(=O)[C@H](CO)NC(=O)[C@H](Cc3cnc[nH]3)NC(=O)[C@H](CC(=O)O)NC(=O)[C@H](CCCNC(=N)N)NC(=O)[C@H](C)NC(=O)[C@H](Cc3c[nH]c4ccccc34)NC(=O)[C@H](CCCCN)NC(=O)[C@H](CO)NC(=O)[C@H](CO)NC(=O)[C@H](CSSC[C@@H](C(N)=O)NC2=O)NC(=O)[C@H](CC(N)=O)NC1=O | Scn2a | sodium current, blocker, two-electrode voltage clamp | Xenopus oocytes |  |  | Kd | 0.008 ± 0.002 µM |
| C[C@@H]1NC(=O)[C@H](Cc2c[nH]cn2)NC(=O)[C@H](CC(=O)O)NC(=O)[C@H](CCCNC(=N)N)NC(=O)[C@@H]2CSSC[C@H](NC(=O)[C@H](CC(N)=O)NC(=O)[C@@H]3CCC(=O)N3)C(=O)N[C@H]3CSSC[C@H](NC(=O)[C@H](CCCNC(=N)N)NC1=O)C(=O)N[C@H](C(N)=O)C[Se][Se]C[C@H](NC(=O)CNC(=O)CNC(=O)[C@H](CC(N)=O)NC3=O)C(=O)N[C@@H](CO)C(=O)N[C@@H](CO)C(=O)N[C@@H](CCCCN)C(=O)N[C@@H](Cc1c[nH]c3ccccc13)C(=O)N2 | Scn2a | ion current, blocker, electrophysiology |  |  |  | Kd | 0.037 ± 0.006 µM |
| O=P(O)(O)C(F)(F)c1cccc(-c2ccc(CO/N=C/c3ccoc3)cc2)c1 | Secreted effector protein (Yersinia pestis, UniProt O68720, C403A/D356A) | surface plasmon resonance |  | immobilized protein |  | Kd | 292 µM |

A few entries again:
| SMILES | tested on | test | system | conditions | scale | endpoint | value |
| --- | --- | --- | --- | --- | --- | --- | --- |
| Cc1ccc(S(=O)(=O)Nc2cccc(C(=O)NC3CCN(c4ncnc5[nH]cnc45)CC3)c2)cc1Cl | SARS-CoV-2 |  | Wuhan-Hu-1 | 0.03048 µM | relative to: untreated infected cells | relative infection | 81.9% |
| C[C@@H]1NC(=O)[C@H](Cc2c[nH]c3ccccc23)NC(=O)[C@H](CCCCN)NC(=O)COCCNC(=O)[C@@H]2CSSC[C@@H](C(N)=O)NC(=O)[C@H](CSSC[C@H](N)C(=O)N[C@@H](CC(N)=O)C(=O)N2)NC(=O)[C@H](CCCNC(=N)N)NC(=O)[C@H](CO)NC(=O)[C@H](Cc2c[nH]cn2)NC(=O)[C@H](CC(=O)O)NC(=O)[C@H](CCCNC(=N)N)NC1=O | Scn2a | sodium current, blocker, two-electrode voltage clamp | Xenopus oocytes |  |  | Kd | 0.046 µM |
| COc1ccc(S(=O)(=O)Nc2cccc(C(=O)NC3CCN(c4ncnc5[nH]cnc45)CC3)c2)cc1 | SARS-CoV-2 |  | Wuhan-Hu-1 | 200 µM | relative to: untreated infected cells | relative infection | 15.1% |
